Assay results of several laboratories.
± gives the spread as reported.
Organism: human cytomegalovirus

SMILES	read-out	method	cell line	strain	time	EC50
Cc1nc(NCCCNc2ccnc3cc(Cl)ccc23)nc(-c2cccc([N+](=O)[O-])c2)c1C(=O)OC(C)C	viral replication	–	HEL	Davis	–	> 4 µM
Nc1nc(O)c2ncn(COC(CO)CO)c2n1	viral cytopathic effect	–	MRC-5	Davis	168 h	7.1 µM
Nc1nc(O)c2ncn(COC(CO)CO)c2n1	viral replication	–	HFF	AD169	–	0.57 ± 0.39 µM
Cc1nc(NCCCCNc2ccnc3cc(Cl)ccc23)nc(-c2ccccc2[N+](=O)[O-])c1C(=O)OC(C)C	viral replication	–	HEL	Davis	–	> 4 µM
CN1CCN(c2cnc3c(cc(C(=O)NCc4ccc(Cl)cc4)c(=O)n3CC(=O)N3CC(C)(F)C3)n2)C1=O	viral cytopathic effect	–	MRC-5	Davis	168 h	0.2 µM
CC1CCCN(S(=O)(=O)c2nc(-c3ccc(Br)cc3)oc2-c2ccc(Cl)cc2)C1 (stereo not shown)	viral replication	–	HFF	AD169	–	5.48 µM
Cc1nc(NCCNc2ccnc3cc(Cl)ccc23)nc(-c2ccccc2[N+](=O)[O-])c1C(=O)OC(C)C	viral replication	–	HEL	AD-169	–	> 20 µM
CC1(C)CN(C(=O)Cn2c(=O)c(C(=O)NCc3ccc(Cl)cc3)cc3nccnc32)C1	viral replication	GFP reporter	MRC-5	AD169-GFP	–	2.06 µM
Cc1ccc(S(=O)(=O)c2nc(S(=O)(=O)NCc3ccccc3)sc2Cl)cc1	viral replication	–	HFF	AD169	–	< 0.05 µM
COc1cc[nH]c1/C=C1\C(=O)Nc2ccc([N+](=O)[O-])c(N3CC[C@@H](O)C3)c21	viral yield	–	HFF	AD169	96 h	0.01 ± 0.005 µM
